Experimental data pooled from the literature.
Numbered parts are unrelated; each lists some results of a single study. Positions count from the first letter of the parent shown.

Set 1
Target: Hepatocyte nuclear factor 3-beta, forkhead domain (FOXA2, Homo sapiens, UniProt Q9Y261, residues 142-269)
Method: protein-binding microarray
Form: hairpin DNA
Medium: in vitro
Concentration: not given
Setting: whole hairpin DNA, median over replicate spots
Reference: not given
Direction: higher = stronger binding
Construct (chain): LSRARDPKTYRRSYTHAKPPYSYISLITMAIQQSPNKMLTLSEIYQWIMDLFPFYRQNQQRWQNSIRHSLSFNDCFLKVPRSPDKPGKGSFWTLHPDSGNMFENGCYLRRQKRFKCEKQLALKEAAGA
Sequence | median fluorescence
GAGGCCATGTAACCACGGCCTCCTGGCCGTGGTTACATGGCCTCACACTC (5mC at 16) | 2990 a.u.
GAGGCCATGCATACAACGCCTCCTGGCGTTGTATGCATGGCCTCACACTC | 3280 a.u.
GAGGCCATACAAACAACGCCTCCTGGCGTTGTTTGTATGGCCTCACACTC | 3380 a.u.
GAGGCCATGTAAACGACGCCTCCTGGCGTCGTTTACATGGCCTCACACTC (5mC at 14) | 3380 a.u.
GAGGCCATGCAAACGACGCCTCCTGGCGTCGTTTGCATGGCCTCACACTC (5mC at 30) | 3600 a.u.
GAGGCCCGGCAAACAACGCCTCCTGGCGTTGTTTGCCGGGCCTCACACTC (5mC at 7) | 3740 a.u.
GAGGCCATGTAACCAAGGCCTCCTGGCCTTGGTTACATGGCCTCACACTC | 2790 a.u.
GAGGCCATGTAACCCACGCCTCCTGGCGTGGGTTACATGGCCTCACACTC | 3180 a.u.

Set 2
Target: Transcription factor SOX-2, HMG box (Sox2, Mus musculus, UniProt P48432, residues 41-119)
Chain of UniProt P48432 (41-119, looked up): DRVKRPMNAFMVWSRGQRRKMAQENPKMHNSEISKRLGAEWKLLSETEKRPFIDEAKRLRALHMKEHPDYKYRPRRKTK
Method: Spec-seq
Form: double-stranded DNA, one strand shown
Medium: in vitro
Concentration: not given
Setting: whole probe, mean of replicates
Reference: not given
Direction: lower = stronger binding
Shared flanks, not repeated: GAGTCGTCTCGTCAGCAC … CCGTAGAGCACTCAGGTC
Sequence | relative binding energy [ln ratio]
CATAGTT | -0.898
ATAGGTT | 0.227
GAAGGTT | 1.23
CAACGTT | 0.751
ACGTGTT | 0.369
CATTTAG | -0.53
CATCGAA | 0.458
CGAAGTT | 1.15

Set 3
Target: DBP, bZIP domain (human)
Method: DHFR protein complementation
Medium: yeast
Setting: single substitutions, most at no-binding floor
Reference: wild-type JUN-FOS pair
Direction: higher = stronger binding
Parent: JUN, bZIP domain (human); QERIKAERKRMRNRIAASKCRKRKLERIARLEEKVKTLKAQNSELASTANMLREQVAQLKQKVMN; partner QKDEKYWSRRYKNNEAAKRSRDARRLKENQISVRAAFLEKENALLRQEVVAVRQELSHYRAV
Change | binding fitness [natural log]
M51V | -1.44
I28M | -1.39
R53Y | -1.49
T37F | -1.51
A46Q | -1.41
L52P | -1.49
T48E | -1.49
S47P | -1.41

Other studies, line by line
Compound | cell line | setting | quantity | result
CC(C)=CCC/C(C)=C/CC/C(C)=C/CC/C(C)=C/CC1=C(C)C(=O)c2ccccc2C1=O | A-375 | 100 µM, 18 h | viability | 59.4%

Repeated from above (set 1):
Sequence | median fluorescence
GAGGCCATGCAAACGACGCCTCCTGGCGTCGTTTGCATGGCCTCACACTC (5mC at 30) | 3600 a.u.
GAGGCCCGGCAAACAACGCCTCCTGGCGTTGTTTGCCGGGCCTCACACTC (5mC at 7) | 3740 a.u.
